Results from different studies.
Every numbered part comes from another study and shows a few of its results, in no order. Substitutions count along the parent as printed.
UniProt Q9UEE5, sequence (whole entry, looked up): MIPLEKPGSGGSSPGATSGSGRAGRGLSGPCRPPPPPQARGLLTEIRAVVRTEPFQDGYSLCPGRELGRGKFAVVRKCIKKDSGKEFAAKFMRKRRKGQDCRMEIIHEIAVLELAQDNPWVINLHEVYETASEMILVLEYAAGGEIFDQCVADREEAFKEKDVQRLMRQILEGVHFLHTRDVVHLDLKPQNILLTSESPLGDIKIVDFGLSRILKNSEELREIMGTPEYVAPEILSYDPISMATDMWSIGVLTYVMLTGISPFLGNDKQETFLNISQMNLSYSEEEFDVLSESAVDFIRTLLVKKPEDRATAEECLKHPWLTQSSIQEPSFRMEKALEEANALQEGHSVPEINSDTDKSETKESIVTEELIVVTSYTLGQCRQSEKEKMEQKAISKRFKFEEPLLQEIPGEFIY
UniProt P07949, sequence (whole entry, looked up): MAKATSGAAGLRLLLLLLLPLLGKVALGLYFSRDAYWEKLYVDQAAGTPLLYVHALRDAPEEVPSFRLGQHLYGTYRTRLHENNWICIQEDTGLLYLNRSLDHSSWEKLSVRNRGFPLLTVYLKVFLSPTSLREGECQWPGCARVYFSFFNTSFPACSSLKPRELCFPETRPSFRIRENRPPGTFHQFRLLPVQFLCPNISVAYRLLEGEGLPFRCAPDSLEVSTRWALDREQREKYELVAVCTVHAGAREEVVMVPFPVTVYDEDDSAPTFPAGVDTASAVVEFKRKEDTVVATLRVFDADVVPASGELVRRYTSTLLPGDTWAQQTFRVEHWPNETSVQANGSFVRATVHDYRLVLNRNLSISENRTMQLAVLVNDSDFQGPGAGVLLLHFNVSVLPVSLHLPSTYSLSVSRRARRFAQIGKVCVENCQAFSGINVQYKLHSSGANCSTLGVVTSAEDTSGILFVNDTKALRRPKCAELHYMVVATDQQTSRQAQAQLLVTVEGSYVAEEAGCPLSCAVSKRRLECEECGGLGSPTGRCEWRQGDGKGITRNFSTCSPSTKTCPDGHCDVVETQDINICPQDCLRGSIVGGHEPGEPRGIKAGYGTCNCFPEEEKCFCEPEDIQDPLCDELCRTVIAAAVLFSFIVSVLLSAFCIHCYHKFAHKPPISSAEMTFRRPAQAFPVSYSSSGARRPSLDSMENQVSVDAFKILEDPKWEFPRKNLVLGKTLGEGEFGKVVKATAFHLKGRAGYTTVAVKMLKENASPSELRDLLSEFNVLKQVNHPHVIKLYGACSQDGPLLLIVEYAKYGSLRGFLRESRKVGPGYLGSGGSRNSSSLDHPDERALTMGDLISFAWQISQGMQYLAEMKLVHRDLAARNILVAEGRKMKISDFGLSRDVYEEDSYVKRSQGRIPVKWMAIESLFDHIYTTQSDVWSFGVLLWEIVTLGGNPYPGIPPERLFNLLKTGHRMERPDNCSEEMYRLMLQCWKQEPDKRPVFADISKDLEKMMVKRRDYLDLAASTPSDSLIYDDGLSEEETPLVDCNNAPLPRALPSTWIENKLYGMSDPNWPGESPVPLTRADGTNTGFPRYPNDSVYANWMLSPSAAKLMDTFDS
UniProt O15530, sequence (whole entry, looked up): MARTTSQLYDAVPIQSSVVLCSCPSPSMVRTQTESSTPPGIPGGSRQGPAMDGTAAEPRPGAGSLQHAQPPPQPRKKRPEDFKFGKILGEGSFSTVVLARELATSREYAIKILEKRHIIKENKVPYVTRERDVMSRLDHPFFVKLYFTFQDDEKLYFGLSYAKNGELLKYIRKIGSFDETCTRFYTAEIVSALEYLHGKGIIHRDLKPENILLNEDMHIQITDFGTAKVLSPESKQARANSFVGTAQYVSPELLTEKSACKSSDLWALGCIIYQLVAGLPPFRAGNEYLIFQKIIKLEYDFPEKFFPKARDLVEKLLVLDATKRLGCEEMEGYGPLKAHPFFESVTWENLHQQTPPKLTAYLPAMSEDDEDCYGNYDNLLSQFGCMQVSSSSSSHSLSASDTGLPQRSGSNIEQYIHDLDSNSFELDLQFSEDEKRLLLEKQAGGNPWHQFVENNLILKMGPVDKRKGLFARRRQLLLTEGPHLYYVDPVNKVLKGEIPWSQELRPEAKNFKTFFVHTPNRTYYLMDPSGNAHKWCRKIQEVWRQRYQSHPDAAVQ
UniProt O75582, sequence (whole entry, looked up): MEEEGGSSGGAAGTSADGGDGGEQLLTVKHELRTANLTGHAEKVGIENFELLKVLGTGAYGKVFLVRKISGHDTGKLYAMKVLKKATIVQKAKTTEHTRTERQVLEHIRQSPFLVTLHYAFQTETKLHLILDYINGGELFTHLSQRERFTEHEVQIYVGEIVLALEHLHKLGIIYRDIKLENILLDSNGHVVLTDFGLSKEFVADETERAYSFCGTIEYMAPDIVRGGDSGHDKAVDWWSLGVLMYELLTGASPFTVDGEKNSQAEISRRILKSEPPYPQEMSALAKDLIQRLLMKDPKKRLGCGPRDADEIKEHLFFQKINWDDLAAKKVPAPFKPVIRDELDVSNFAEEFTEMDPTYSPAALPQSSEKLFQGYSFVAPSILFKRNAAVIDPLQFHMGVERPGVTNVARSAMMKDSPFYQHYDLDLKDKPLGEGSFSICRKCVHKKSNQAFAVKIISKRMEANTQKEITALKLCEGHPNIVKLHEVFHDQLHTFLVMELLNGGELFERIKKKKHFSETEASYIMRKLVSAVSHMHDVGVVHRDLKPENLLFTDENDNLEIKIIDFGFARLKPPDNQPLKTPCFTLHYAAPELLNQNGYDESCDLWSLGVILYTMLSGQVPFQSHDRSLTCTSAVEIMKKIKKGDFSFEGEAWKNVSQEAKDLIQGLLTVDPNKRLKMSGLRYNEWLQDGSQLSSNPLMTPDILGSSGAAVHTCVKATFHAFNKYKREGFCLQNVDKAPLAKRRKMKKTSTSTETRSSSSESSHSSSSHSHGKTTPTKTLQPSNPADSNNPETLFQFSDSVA
UniProt O75716, sequence (whole entry, looked up): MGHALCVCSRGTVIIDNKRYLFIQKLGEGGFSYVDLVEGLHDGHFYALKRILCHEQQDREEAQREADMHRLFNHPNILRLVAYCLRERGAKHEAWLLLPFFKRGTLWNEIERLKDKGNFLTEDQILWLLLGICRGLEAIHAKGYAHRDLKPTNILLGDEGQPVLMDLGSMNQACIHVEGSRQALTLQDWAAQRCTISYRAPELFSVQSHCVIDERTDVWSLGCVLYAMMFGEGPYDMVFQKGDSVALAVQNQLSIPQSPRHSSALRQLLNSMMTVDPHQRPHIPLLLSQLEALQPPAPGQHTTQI

Series 1 — technique: DHFR PCA, dose-response; matrix: yeast; notes: Hill fit, mean, not affinity; together with: (+)-ABA, dose series; reading: lower = more sensitive; endpoint: ABA EC50
Target: ABI1, truncated, D143A, DHFR fusion (Arabidopsis thaliana, UniProt P49597)
Parent: PYL1, truncated, DHFR fusion (Arabidopsis thaliana, UniProt Q8VZS8); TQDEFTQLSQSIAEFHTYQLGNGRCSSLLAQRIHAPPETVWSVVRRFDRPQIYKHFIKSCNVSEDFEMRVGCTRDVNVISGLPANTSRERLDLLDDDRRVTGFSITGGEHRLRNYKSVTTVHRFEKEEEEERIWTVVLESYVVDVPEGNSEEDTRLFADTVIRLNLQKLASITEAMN
E147C: 4 µM
I79H: 2.75 µM
T120Q: 137 µM
A30R: 3.76 µM
C25A: 2.01 µM
S27T: 76.4 µM
D97H: 3.66 µM
C72M: 2.36 µM

Series 2 — technique: RNAcompete; form: RNA; matrix: in vitro; concentration: 20 nM; notes: 7-mer, probes averaged, single round; relative to: mean of 7-mers; reading: higher = stronger binding; endpoint: 7-mer Z-score
Target: PABPC1L2, full length, GST fusion (mouse, UniProt A0ABA7IW68)
Construct (chain): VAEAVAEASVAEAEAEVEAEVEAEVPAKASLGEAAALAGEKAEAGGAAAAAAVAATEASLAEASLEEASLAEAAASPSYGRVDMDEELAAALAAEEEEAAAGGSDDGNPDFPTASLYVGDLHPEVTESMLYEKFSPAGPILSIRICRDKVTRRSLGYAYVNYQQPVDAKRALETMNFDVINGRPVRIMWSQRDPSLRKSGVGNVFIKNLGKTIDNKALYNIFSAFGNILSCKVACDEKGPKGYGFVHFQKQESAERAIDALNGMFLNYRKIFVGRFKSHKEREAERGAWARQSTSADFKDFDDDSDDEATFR
UUCUGGG: -0.22
UUACCUA: -0.164
UACCGUA: -0.267
ACGUGCA: -0.0917
UACACCG: -0.13
AUAGGCC: -0.113
AAAGGAA: 1.09
GAAUCUU: -0.298

Series 3 — effect on: enzyme activity; action: inhibitor; concentration: 0.5 µM; relative to: control; endpoint: remaining activity
SMILES: CCCC(=O)Oc1ccc2[nH]c(C(=O)c3cc4ccccc4[nH]3)cc2c1
Serine/threonine-protein kinase 16 (STK16, Homo sapiens, UniProt O75716): 100%
Serine/threonine-protein kinase 17A (STK17A, Homo sapiens, UniProt Q9UEE5): 90.9%
Ribosomal protein S6 kinase alpha-5 (RPS6KA5, Homo sapiens, UniProt O75582): 95.3%
3-phosphoinositide-dependent protein kinase 1 (PDPK1, Homo sapiens, UniProt O15530): 101%

Further values, each from its own experiment — concentration: 1 µM
CC(=O)N1CCC(c2ccc(C(=O)NC3=NCCN3)cc2C(F)(F)F)CC1
remaining binding (Proto-oncogene tyrosine-protein kinase receptor Ret (RET, Homo sapiens, UniProt P07949); cell-free assay, competition with immobilised ligand): 100%

Cn1cncc1[C@@](O)(COc1ccc(C#N)cc1-c1ccc(OC(F)(F)F)cc1)c1ccc(C#N)cc1
viability (patient-derived normal-adjacent epithelium organoids; relative to: DMSO control): 79%
